Experimental data from different studies.
Each numbered part is a random draw from the data of one study; scales do not carry over between parts.

Sample 1 — technique: RNA Bind-n-Seq; molecule type: RNA; sample: in vitro; tested at: 200 nM; notes: whole 134-nt RNA, ends assumed; together with: 150 mM LiCl; baseline: input library; reading: higher = stronger binding; all molecules: 7-deaza-guanosine replaces G
Target: Ras GTPase-activating protein-binding protein 1, full length (G3BP1, Homo sapiens, UniProt Q13283)
Chain of UniProt Q13283 (whole entry, looked up): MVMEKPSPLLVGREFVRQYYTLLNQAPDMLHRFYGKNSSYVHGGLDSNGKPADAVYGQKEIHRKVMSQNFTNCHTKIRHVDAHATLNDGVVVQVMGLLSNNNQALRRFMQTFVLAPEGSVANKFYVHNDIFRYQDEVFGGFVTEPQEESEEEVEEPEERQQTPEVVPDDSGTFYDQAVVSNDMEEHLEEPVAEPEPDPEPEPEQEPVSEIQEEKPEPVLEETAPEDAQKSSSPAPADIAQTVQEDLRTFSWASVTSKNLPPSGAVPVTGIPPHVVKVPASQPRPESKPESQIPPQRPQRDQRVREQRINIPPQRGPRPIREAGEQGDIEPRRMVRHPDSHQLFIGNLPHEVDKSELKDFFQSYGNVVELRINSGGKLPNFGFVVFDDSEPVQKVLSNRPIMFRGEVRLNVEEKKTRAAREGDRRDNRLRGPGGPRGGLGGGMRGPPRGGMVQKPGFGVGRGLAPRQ
All sequences stand within: GGGAGUUCUACAGUCCGACGAUC … UGGAAUUCUCGGGUGUCAAGG
| Sequence | log2 enrichment |
| --- | --- |
| AAGUCCUGUGCUACACAUCGUAUGUACCGAAUCGGGCCCCGGCCCCGGGCCCCGGGGAAAGUAUUAUGUUACGCCGUUCGGAUCUGCACU | -1.25 |
| CUCAAGUCCUGUGCUACACAUCGUAUGUACCGAAUCGGGUUUGGGAGGGUGGGAAAGUAUUAUGUUACGCCGUUCGGAUCUGCACUUCCA | -0.175 |
| UUGCAUUUCGAACGCGUUCUAAGAUGCCCCUGAAAGAUGUUCCCCUGGGCCAAUUAGAGGCAGAGCUCCAAGCUCCAGACAUCACUCCAG | 0.596 |
| UGCCAUAAGCGGCACCGGCACUGCCCGGUUGUCGUGUCCGAGGCCACCAUCGUGGGCGUCCGCAAGACCGGGCAGAUCUGGCCCAACGAU | -1.27 |
| GCAGGAAGUAAAAACAAAUGGAAUUGCUUCGGAUAGUGGCAGGGGUGGGGGUUGCUAAGGAAAGGGUGGGAUGGGAGUGGGUAAAGAGUU | 0.182 |
| CAAGUCCUGUGCUACACAUCGUAUGUACCGAAUCGGGAAAGGGAAAGGGAAAGGGAAAGUAUUAUGUUACGCCGUUCGGAUCUGCACUUC | -0.401 |
| UGGCCCUGGUGGCAUGCGGGGAGGAAGAGAUGGCCUCAUGGAUCGUGGUGGUCCCGGUGGAAUGUUCAGAGGUGGCCGUGGUGGAGACAG | 0.0125 |
| GGCACAGGUGCCCGACCAUACACUGGGAAAGUUGGUGCUGAGGAUGCCGAUGGGAUUGACAUGGCCUACCGGGUGCUGGCUGACCACGCU | -1.35 |

Sample 2 — observed: enzyme activity; action: inhibitor; tested at: 20 µM
Target: Replicase polyprotein 1ab, polymerase (rep, Severe acute respiratory syndrome coronavirus 2, UniProt P0DTD1)
| Structure (SMILES) | inhibition [%] |
| --- | --- |
| Cc1nc(N)sc1-c1ccnc(Nc2ccc(N3CCOCC3)cc2)n1 | -8.64 |
| Nc1nc(=O)n([C@@H]2O[C@H](CO)[C@@H](O)[C@@H]2F)cc1I | 2.4 |
| Cc1c(C)c2c(c(C)c1O)CCC(C)(C)O2 | -18.3 |
| COC(=O)/C=C/C(=O)OCCN1C(=O)CCC1=O | -7.4 |
| N=C(N)SCc1ccc(B(O)O)cc1 | -5.82 |
| CCCCOc1cc(C(=O)NCCN(CC)CC)c2ccccc2n1 | 17.3 |
| CCOC(=O)[C@H](CCc1ccccc1)N[C@@H](C)C(=O)N(CC(=O)O)C1Cc2ccccc2C1 | -0.52 |
| CCCc1nc(C(C)(C)O)c(C(=O)OCc2oc(=O)oc2C)n1Cc1ccc(-c2ccccc2-c2nnn[nH]2)cc1 | 0.35 |
| N[C@@H](Cn1ccc(=O)c(O)c1)C(=O)O | -1.27 |
| C[C@@H]1CN([C@H]2CC[C@](C#N)(c3ccc(F)cc3)CC2)CC[C@]1(C(=O)O)c1ccccc1 | -4.61 |
| CCCOCCn1c(=O)c(N2CCN(CCO)CC2)nc2cnc(-c3ccc(OC)nc3)cc21 | -0.88 |
| C[C@@H]1O[C@@H](OC[C@H]2O[C@@H](Oc3c(-c4ccc(O)c(O)c4)oc4cc(O)cc(O)c4c3=O)[C@H](O)[C@@H](O)[C@@H]2O)[C@H](O)[C@H](O)[C@H]1O | 28.3 |
| CC1(C)CC(=O)c2c(C(F)(F)F)nn(-c3ccc(C(N)=O)c(N[C@H]4CC[C@H](OC(=O)CN)CC4)c3)c2C1 | 8.75 |
| CN[C@H](CC(C)C)C(=O)N[C@H]1C(=O)N[C@@H](CC(N)=O)C(=O)N[C@H]2C(=O)N[C@H]3C(=O)N[C@H](C(=O)N[C@H](C(=O)O)c4cc(O)cc(O)c4-c4cc3ccc4O)[C@H](O)c3ccc(c(Cl)c3)Oc3cc2cc(c3O[C@@H]2O[C@H](CO)[C@@H](O)[C@H](O)[C@H]2O[C@H]2C[C@](C)(N)[C@H](O)[C@H](C)O2)Oc2ccc(cc2Cl)[C@H]1O | -3.9 |
| CCN(CC)C(=S)SSC(=S)N(CC)CC | 13.4 |
| O=C1c2ccccc2-c2c(NCCc3ccccc3)c(=O)[nH]c3cccc1c23 | -26 |
| O=C(Nc1ccc(S(=O)(=O)Nc2ccccc2Cl)c(Cl)c1)c1ccccn1 | 0.21 |
| O=C(O)[C@@H](S)[C@@H](S)C(=O)O | 27.7 |
| CC1(C)O[C@@H]2C[C@H]3[C@@H]4CCC5=CC(=O)C=C[C@]5(C)[C@H]4[C@@H](O)C[C@]3(C)[C@]2(C(=O)CO)O1 | -8.43 |
| CC(C)(C)[C@]1(O)CCN2C[C@H]3c4ccccc4CCc4cccc(c43)[C@@H]2C1 | -8.35 |
| O=C(Nc1ccccc1Br)N[C@@H]1CCN(c2ccc(C(F)(F)F)cn2)C1 | 2.67 |
| O=C(NC1Cc2ccccc2N(C[C@@H](O)CO)C1=O)c1cc2cc(Cl)sc2[nH]1 (stereo partly shown) | -2.13 |
| C[C@@H]1CCCN1CCc1cc2cc(-c3ccc(C#N)cc3)ccc2o1 | 4.56 |
| CN1CCN(c2cccc3[nH]c(=O)oc23)CC1 | -1.29 |
| Cn1cncc1[C@@](N)(c1ccc(Cl)cc1)c1ccc2c(c1)c(-c1cccc(Cl)c1)cc(=O)n2C | 1.84 |

Sample 3 — technique: universal PBM; molecule type: double-stranded DNA, one strand shown; sample: in vitro; tested at: not given; reading: higher = stronger binding
Target: Sal-like protein 4, full length isoform B (SALL4, Homo sapiens, UniProt Q9UJQ4-2, residues 1-616)
Notes: 8-mer, flanks averaged, mean of replicates
Construct (chain): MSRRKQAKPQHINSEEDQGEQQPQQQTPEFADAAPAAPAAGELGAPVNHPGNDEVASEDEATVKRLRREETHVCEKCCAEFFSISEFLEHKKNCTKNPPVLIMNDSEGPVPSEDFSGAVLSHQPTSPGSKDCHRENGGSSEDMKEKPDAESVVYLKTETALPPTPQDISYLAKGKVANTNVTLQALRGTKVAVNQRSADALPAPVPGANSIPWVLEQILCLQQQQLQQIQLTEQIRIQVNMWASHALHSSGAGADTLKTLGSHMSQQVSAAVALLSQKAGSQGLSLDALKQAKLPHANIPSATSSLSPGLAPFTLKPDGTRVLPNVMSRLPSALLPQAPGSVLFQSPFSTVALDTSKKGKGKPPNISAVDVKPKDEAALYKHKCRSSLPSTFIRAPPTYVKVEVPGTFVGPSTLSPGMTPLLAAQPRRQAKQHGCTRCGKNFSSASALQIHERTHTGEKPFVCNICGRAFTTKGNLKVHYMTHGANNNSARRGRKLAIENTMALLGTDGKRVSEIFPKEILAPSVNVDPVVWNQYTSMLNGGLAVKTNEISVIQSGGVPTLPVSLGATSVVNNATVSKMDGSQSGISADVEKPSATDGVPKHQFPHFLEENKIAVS
| Sequence | E-score |
| --- | --- |
| CGTGTTAC | 0.0433 |
| CCCAACAA | -0.064 |
| AATAATGA | 0.347 |
| CGGACGTC | -0.18 |
| CAAATGCC | -0.172 |
| ACCAGACC | -0.252 |
| AGCGTTAT | 0.137 |
| GGCTTATA | 0.222 |

Sample 4 — observed: enzyme activity; action: inhibitor; notes: without DTT
Target: Replicase polyprotein 1ab, main protease (rep, Severe acute respiratory syndrome coronavirus 2, UniProt P0DTD1)
| Compound | IC50 |
| --- | --- |
| Oc1c(I)cc(I)c(O)c1I | 0.33 µM |
| CCOC(=S)SSC(=S)OCC | 6 µM |
| O=C(/C=C/c1ccc(O)c(O)c1)O[C@H](Cc1ccc(O)c(O)c1)C(=O)O | 3.9 µM |

Sample 5 — technique: competition protein-binding microarray; molecule type: double-stranded DNA, one strand shown; sample: in vitro; tested at: 2 µM; together with: Pho4 competitor, 0.05 µM; reading: higher = stronger binding; all sequences stand within: … GTCTTGATTCGCTTGACGCTGCTG
Target: Centromere-binding protein 1, full length, His-tagged (CBF1, Saccharomyces cerevisiae, UniProt P17106, residues 1-351)
Chain of UniProt P17106 (whole entry, looked up): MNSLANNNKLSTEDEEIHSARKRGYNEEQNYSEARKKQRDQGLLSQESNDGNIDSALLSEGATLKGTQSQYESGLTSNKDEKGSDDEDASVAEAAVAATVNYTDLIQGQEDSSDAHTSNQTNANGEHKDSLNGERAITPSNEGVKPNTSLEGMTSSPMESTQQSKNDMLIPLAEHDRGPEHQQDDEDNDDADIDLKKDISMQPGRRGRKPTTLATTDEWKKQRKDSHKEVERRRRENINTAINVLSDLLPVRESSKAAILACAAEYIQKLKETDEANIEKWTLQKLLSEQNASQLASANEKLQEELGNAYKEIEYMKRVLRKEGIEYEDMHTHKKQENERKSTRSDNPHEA
Notes: whole 60-bp probe, lowest competitor level
| Sequence | fluorescence intensity |
| --- | --- |
| CCGTCGAAACAATGGCAGGTGAAGCAGTTTCGGAAT | 83.9 a.u. |
| TTACGCAGCTTTCGGCACGTGAGTACGGAAACACCA | 1770 a.u. |
| GGTGTGCGGTTGCGGGGCGTGGGTATGCGCGCCGTT | 94.1 a.u. |
| TTAACGGTTCTCTAGCTCGTGCTTTTAAAGTTAAGT | 117 a.u. |
| AAACCATTCAGGTCTTGCGTGCCGAGAATTTTTTTT | 86.3 a.u. |
| ATATCGTCGAATTGTCATGTGATGAAGCCAATTTAT | 1250 a.u. |
| CTTCTGTAAATTTGCACAGTGGGTGGACGCGCCCCG | 68.1 a.u. |
| GCTCCCTCAGCCCCGGGCGTGCTTTGACGCTATTCC | 44.4 a.u. |

Sample 6 — organism: Vesicular stomatitis virus; observed: pseudovirus infection; technique: FDA-approved drug library screen; tested at: concentration not given; notes: SARS-CoV-2 spike pseudotype; baseline: vehicle
| SMILES | GFP-positive cells [%] |
| --- | --- |
| Nc1ccc(S(=O)(=O)c2ccc(N)cc2)cc1 | 78 |
| CN(C)CCc1c[nH]c2ccc(CS(=O)(=O)N3CCCC3)cc12.O=C(O)CC(O)C(=O)O | 94.1 |
| O=C(O)C(=O)O.[NH-][C@@H]1CCCC[C@H]1[NH-].[Pt+2] | 99.5 |

A few entries again (sample 2):
| Structure (SMILES) | inhibition [%] |
| --- | --- |
| CCCOCCn1c(=O)c(N2CCN(CCO)CC2)nc2cnc(-c3ccc(OC)nc3)cc21 | -0.88 |
| O=C(Nc1ccc(S(=O)(=O)Nc2ccccc2Cl)c(Cl)c1)c1ccccn1 | 0.21 |
| Cn1cncc1[C@@](N)(c1ccc(Cl)cc1)c1ccc2c(c1)c(-c1cccc(Cl)c1)cc(=O)n2C | 1.84 |
| CCN(CC)C(=S)SSC(=S)N(CC)CC | 13.4 |
| CCCc1nc(C(C)(C)O)c(C(=O)OCc2oc(=O)oc2C)n1Cc1ccc(-c2ccccc2-c2nnn[nH]2)cc1 | 0.35 |
| C[C@@H]1CCCN1CCc1cc2cc(-c3ccc(C#N)cc3)ccc2o1 | 4.56 |
